Published values collected from several papers.
Numbered parts are unrelated; each lists some results of a single study. Substitutions count along the parent as printed.

Sample 1 — target: XBP1, bZIP domain (human); technique: DHFR protein complementation; matrix: yeast; reference: wild-type JUN-FOS pair; direction: higher = stronger binding
Setting: single substitutions, most at no-binding floor
Starting sequence: JUN, bZIP domain (human); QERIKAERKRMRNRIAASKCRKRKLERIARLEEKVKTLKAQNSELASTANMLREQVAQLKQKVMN; partner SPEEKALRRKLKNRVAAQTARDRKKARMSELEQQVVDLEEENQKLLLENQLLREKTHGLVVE
| Variant | binding fitness |
| --- | --- |
| I28D | -1.34 natural log |
| A29L | -1.18 natural log |
| S43F | -0.864 natural log |
| L45N | -1.4 natural log |
| E32G | -1.39 natural log |
| K36G | -1.26 natural log |
| L45C | -1.37 natural log |
| M51A | -0.573 natural log |
| A57K | -1.22 natural log |
| A49D | -1.47 natural log |
| K36F | -1.3 natural log |
| A29V | -1.11 natural log |
| K34M | -1.13 natural log |
| M51H | -0.906 natural log |

Sample 2 — technique: DHFR PCA, deep sequencing; matrix: yeast; together with: (+)-ABA 4.8 µM; reference: wild-type fitted maximum; direction: higher = stronger binding
Target: ABI1, truncated, D143A, DHFR fusion (Arabidopsis thaliana)
Setting: methotrexate growth selection, single substitutions
Starting sequence: PYL1, truncated, DHFR fusion (Arabidopsis thaliana); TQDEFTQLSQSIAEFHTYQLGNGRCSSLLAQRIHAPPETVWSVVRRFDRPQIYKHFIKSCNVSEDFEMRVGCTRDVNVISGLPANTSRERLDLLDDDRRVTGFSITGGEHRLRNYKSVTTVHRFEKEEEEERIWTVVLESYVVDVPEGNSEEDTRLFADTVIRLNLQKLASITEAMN
| Variant | relative binding score |
| --- | --- |
| V100C | 49.6% |
| V78K | -1.12% |
| C60P | 5.92% |
| L169C | -12.5% |
| G108N | -1.83% |
| M68C | 59.7% |
| N149Q | 25.6% |
| A84D | 14.5% |
| V137T | 0.945% |
| E131C | 76.2% |
| V76K | -1.4% |
| E64P | 79.8% |
| A35C | 51.3% |
| L93V | 80.4% |
| V44A | 22.7% |
| L164K | 35% |
| V161T | 2.98% |

Sample 3 — technique: RNA Bind-n-Seq; molecule type: RNA; matrix: in vitro; concentration: 1 µM; setting: whole 134-nt RNA, ends assumed; together with: 150 mM KCl; reference: input library; direction: higher = stronger binding
Target: Ras GTPase-activating protein-binding protein 1, C-terminal RGG region (G3BP1, Homo sapiens, UniProt Q13283)
UniProt Q13283, sequence (whole entry, looked up): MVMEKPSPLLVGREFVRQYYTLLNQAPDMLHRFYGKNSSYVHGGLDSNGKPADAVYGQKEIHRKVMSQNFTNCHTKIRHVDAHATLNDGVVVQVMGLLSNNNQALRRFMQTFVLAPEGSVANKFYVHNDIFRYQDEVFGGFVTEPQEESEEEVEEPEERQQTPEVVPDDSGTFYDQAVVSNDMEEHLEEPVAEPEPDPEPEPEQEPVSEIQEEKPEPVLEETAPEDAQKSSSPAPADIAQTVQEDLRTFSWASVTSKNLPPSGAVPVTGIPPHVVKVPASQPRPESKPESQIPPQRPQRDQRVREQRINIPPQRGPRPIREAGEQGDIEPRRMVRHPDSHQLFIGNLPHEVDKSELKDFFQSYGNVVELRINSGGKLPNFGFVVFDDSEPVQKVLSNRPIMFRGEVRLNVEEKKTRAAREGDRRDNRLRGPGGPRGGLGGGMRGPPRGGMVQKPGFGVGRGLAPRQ
Shared flanks, not repeated: GGGAGUUCUACAGUCCGACGAUC … UGGAAUUCUCGGGUGUCAAGG
| Oligonucleotide | log2 enrichment |
| --- | --- |
| CAAGUCCUGUGCUACACAUCGUAUGUACCGAAUCGGGGCCCCGGCCCCGGCCCCGGAAAGUAUUAUGUUACGCCGUUCGGAUCUGCACUU | -1.76 |
| UAACUUUAGAGGAGGAUCUGAUGGAUAUGGCAGUGGACGUGGAUUUGGGGAUGGCUAUCAUGGGUAUGGAGGAGGACCUGGAGGUGGCAA | -0.995 |
| UGAGAGGUGGAUUUUGUUUAUUUUUUUAGCUCAUUUCCAGGGGUGGGAAUUUUUUUUUAAUAUGUGUCAUGAAUAAAGUUGUUUUUGAAA | 2.8 |
| GUCCUGUGCUACACAUCGUAUGUACCGAAUCGGGAAAGGGAAAAAGGGUUUUUUUGGGAAAGUAUUAUGUUACGCCGUUCGGAUCUGCAC | -0.193 |
| AAGUCCUGUGCUACACAUCGUAUGUACCGAAUCGGAAAAAAAGGUUUGGAAAAAGGAAAGUAUUAUGUUACGCCGUUCGGAUCUGCACUU | -2.2 |
| CCUCAAGUCCUGUGCUACACAUCGUAUGUACCGAAUCGGUGGGGUGGGGUGGAAAGUAUUAUGUUACGCCGUUCGGAUCUGCACUUCCAG | -0.339 |
| ACCAUGCAGGUGGGCAUCUUUGGGAAGUGGGGCAAGGGGGGGAUAGGGAGGGGGGUAACACUUUGGGAACAGGUGGUCCCAAAUCGUUUC | -0.745 |
| UGGGAGGUGGAUUUUGUUUAUUUUUUCAGCUCAUUUCCAGGGGUGGGAAUUUUUUUUUAAUAUGUGUCAUGAAUAAAGUUGUUUUUGAAA | 3.72 |
| UCCCUAUUCCAGUCAUACACGUGGACCUAACUGCACCAGUAGCUUUUCUGAGAAUACUUGCUGAAAAGGAAGUUUUCUGGAAUGGGUAAG | -0.679 |

Sample 4 — technique: universal PBM; molecule type: double-stranded DNA, one strand shown; matrix: in vitro; concentration: 600 nM; direction: higher = stronger binding
Target: Sal-like protein 4, full length isoform A (SALL4, Homo sapiens, UniProt Q9UJQ4, residues 1-1053)
UniProt Q9UJQ4, sequence (whole entry, looked up): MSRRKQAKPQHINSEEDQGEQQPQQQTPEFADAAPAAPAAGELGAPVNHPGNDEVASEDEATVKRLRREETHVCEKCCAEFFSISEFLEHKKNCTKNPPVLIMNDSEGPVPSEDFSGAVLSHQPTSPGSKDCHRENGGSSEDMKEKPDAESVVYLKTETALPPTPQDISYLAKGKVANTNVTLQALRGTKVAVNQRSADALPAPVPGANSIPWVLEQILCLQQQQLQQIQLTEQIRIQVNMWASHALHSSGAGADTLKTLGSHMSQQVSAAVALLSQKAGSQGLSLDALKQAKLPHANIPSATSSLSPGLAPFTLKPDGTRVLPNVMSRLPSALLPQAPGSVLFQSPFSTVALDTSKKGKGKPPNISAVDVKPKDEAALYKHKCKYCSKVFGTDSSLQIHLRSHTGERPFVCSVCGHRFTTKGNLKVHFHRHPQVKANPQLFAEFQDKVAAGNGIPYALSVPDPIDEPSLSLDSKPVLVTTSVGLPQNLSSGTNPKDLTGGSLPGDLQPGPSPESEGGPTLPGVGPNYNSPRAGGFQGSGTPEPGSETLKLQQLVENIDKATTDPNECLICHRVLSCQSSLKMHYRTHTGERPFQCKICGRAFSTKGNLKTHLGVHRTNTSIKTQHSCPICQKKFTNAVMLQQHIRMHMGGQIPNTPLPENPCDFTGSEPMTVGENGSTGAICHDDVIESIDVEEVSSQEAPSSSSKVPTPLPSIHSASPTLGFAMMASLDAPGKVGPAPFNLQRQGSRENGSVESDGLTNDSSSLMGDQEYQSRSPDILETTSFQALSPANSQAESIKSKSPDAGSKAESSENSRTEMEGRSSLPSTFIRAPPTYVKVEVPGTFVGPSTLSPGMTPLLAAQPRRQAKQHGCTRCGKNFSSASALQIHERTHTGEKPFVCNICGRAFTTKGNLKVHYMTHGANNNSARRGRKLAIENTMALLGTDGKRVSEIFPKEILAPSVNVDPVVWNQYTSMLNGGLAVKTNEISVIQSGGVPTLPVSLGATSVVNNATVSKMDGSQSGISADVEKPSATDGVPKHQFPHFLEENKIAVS
Setting: 8-mer, flanks averaged, mean of replicates
| Oligonucleotide | E-score |
| --- | --- |
| ATATCCCA | 0.25 |
| AGTTGGAG | -0.0469 |
| CGAGTACC | -0.0721 |
| AGCGTGAC | -0.126 |
| GGACCACA | -0.0909 |
| AGGGTCAT | -0.0201 |
| TAGTCCAA | 0.0259 |
| AGTGCTGC | -0.21 |
| AGCGGTGC | -0.194 |
| ACTTAATG | 0.217 |
| CCGCGCCG | -0.359 |
| ATCGTCGA | -0.111 |
| ATCGGCGG | -0.189 |
| TAGGGTAA | 0.179 |
| CCATCTCA | -0.109 |

Sample 5 — technique: protein binding microarray; molecule type: double-stranded DNA, one strand shown; matrix: in vitro; concentration: not given; reference: not given; direction: higher = stronger binding
Target: Histone acetyltransferase KAT6A, both winged helices, GST fusion (KAT6A, Homo sapiens, UniProt Q92794, residues 1-181)
Setting: 8-mer, flanks averaged, mean of 2 arrays, mostly near background
Construct (chain): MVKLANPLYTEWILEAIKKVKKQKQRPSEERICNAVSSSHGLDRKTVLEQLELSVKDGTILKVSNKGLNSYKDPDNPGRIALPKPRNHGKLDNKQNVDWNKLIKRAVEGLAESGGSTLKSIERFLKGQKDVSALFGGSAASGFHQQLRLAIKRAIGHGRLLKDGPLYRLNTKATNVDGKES
| Oligonucleotide | E-score |
| --- | --- |
| CCGGGGCA | 0.107 |
| AACCATCT | -0.0452 |
| AACCAGCA | -0.155 |
| CTGAGAAC | -0.115 |
| CATGAGAG | -0.158 |
| CCCATGCG | 0.114 |
| ACCCTATG | -0.253 |
| AAAAGGTG | -0.139 |
| ACCTCACC | -0.157 |
| ATGCAAAA | -0.0726 |
| GGGGGTTA | -0.19 |
| ATTGTATA | 0.0474 |
| ACCTCGTG | 0.0275 |
| TCTTCAAA | -0.174 |
| AGACCGCT | 0.195 |
| AACTCCCA | -0.226 |
| ACACCGCC | 0.106 |
| ATGTGCAG | -0.146 |
| AAAGATCC | -0.0403 |
| AAATTCTT | -0.0619 |
| CTGTCGTC | -0.168 |
| GCGCCAAA | 0.244 |

Sample 6 — technique: protein-binding microarray; molecule type: double-stranded DNA, one strand shown; matrix: in vitro; concentration: 2540 nM top; setting: 60-bp whole probe; together with: salmon DNA 0.4 mg/ml; reference: random background probes; direction: higher = stronger binding; shared flanks, not repeated: GCCTAGCAC … GTCTTGATTCGCTTGACGCTGCTG
Target: Interferon regulatory factor 3, full length, phosphomimetic (IRF3, Homo sapiens, UniProt Q14653, residues 1-427, S386D/S396D/S398D/S402D/T404D/S405D)
UniProt Q14653, sequence (whole entry, unmodified, looked up): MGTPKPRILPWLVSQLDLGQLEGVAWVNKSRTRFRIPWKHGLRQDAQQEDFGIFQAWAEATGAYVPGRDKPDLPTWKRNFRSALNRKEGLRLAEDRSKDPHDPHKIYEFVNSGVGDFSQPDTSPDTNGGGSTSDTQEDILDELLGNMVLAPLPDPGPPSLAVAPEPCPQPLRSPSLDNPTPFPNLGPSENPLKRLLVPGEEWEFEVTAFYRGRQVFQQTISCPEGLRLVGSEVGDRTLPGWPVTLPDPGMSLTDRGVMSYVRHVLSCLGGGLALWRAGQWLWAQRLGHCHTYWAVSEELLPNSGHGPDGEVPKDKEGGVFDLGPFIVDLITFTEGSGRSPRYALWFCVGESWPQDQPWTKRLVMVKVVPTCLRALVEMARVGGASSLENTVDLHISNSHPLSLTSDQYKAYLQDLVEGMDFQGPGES
| Oligonucleotide | fitted relative affinity [z-score] |
| --- | --- |
| TTAGATACCGGGTATCGATTAGTGCTA | 0.444 |
| GACGATTTCAGTGCCGAGACGTGCTAG | 0.793 |
| GATGGTATCGACTTTCGGGACGTGCTA | 1.04 |
| TTAGATATCAGTTACGATTAGTGCTAG | 1.04 |
| AGACACCCCTTTGGTGCCACGTGCTAG | 0.184 |
| TTAGGTATCGGTTTCGGTCAGTGCTAG | 7.93 |
| TTAGATATCGGAACTGGATTAGTGCTA | 1.04 |
| GACGGACTGCTTGTCCTGACGTGCTAG | -0.395 |
| GACGGTTTCGACACTGGGGGCGTGCTA | 3.41 |
| TTAGAACTGGGGTTTCAATTAGTGCTA | -0.288 |
| TGAGATATCGGGTATCGATTAGTGCTA | 0.0627 |
| GGTCTTCTGGGCTGTTTGATCGTGCTA | -0.0247 |
| TTAGGTTTCGGTATCGGTCAGTGCTAG | 8.3 |
| TTAGGACTGGTTTTCCTTTAGTGCTAG | 2.36 |
| CTAGGACTGGGACTGGGTTAGTGCTAG | -0.854 |
| CTAGTTCTGCTTTGCCTTCAGTGCTAG | 0.9 |
| GACGGTTTCTGACTGGGGACGTGCTAG | 2.33 |
| TTTCATTTATTTACTCTCTACGTGCTA | 3.4 |

Sample 7 — technique: aptamer microarray, sandwich; molecule type: DNA with 2'F-ANA; matrix: in vitro; concentration: 200 nM; together with: Cy3 exosite-II aptamer, 400 nM; direction: higher = stronger binding; oligonucleotide: GGTTGGTGTGGTTGG
Target: Prothrombin, mature alpha-thrombin (F2, Homo sapiens, UniProt P00734)
Setting: whole 15-mer aptamer, many near background
| Modification | mean fluorescence intensity [a.u.] |
| --- | --- |
| 2'F-ANA at 3 5 6 9 10 14 15 | 52.7 |
| 2'F-ANA at 1 2 4 9 11 15 | 93.3 |
| 2'F-ANA at 4 5 7 8 10 12 15 | 47.9 |
| 2'F-ANA at 1 4 5 6 7 8 9 14 15 | 77.4 |
| 2'F-ANA at 1 3 6 7 8 9 12 14 | 131 |
| 2'F-ANA at 1 3 4 6 8 9 11 12 | 368 |
| 2'F-ANA at 1 2 3 4 5 7 12 13 14 | 46.6 |
| 2'F-ANA at 1 2 3 4 6 7 8 11 12 15 | 294 |
| 2'F-ANA at 1 2 3 5 7 8 10 13 14 | 49.5 |
| 2'F-ANA at 1 2 3 4 5 6 7 8 11 12 13 14 15 | 51.4 |
| 2'F-ANA at 1 3 5 6 8 10 11 12 13 15 | 49.1 |
| 2'F-ANA at 2 3 4 6 8 11 12 | 803 |
| 2'F-ANA at 1 2 4 6 7 9 13 | 66.9 |
| 2'F-ANA at 1 2 3 4 5 7 8 10 12 13 | 46.9 |
| 2'F-ANA at 2 3 5 6 7 8 10 11 14 15 | 86.8 |
| 2'F-ANA at 2 7 10 12 | 192 |
| 2'F-ANA at 1 4 7 9 10 13 | 46.7 |
| 2'F-ANA at 1 2 5 10 11 12 13 14 | 44.1 |
| 2'F-ANA at 1 2 3 4 5 6 8 9 11 14 | 47.5 |
| 2'F-ANA at 1 3 4 5 7 8 10 12 | 49.8 |
| 2'F-ANA at 3 5 6 7 10 11 13 14 | 47.7 |
| 2'F-ANA at 1 2 3 4 5 6 9 11 13 14 | 51.6 |
| 2'F-ANA at 1 2 3 4 15 | 316 |
| 2'F-ANA at 1 2 3 4 5 6 7 9 13 14 | 49.1 |
| 2'F-ANA at 1 2 3 4 5 6 10 14 15 | 73.2 |

Some of these lines once more (sample 6):
| Oligonucleotide | fitted relative affinity [z-score] |
| --- | --- |
| GACGGTTTCGACACTGGGGGCGTGCTA | 3.41 |
| TTAGATATCGGAACTGGATTAGTGCTA | 1.04 |
| CTAGGACTGGGACTGGGTTAGTGCTAG | -0.854 |
| TTAGGTATCGGTTTCGGTCAGTGCTAG | 7.93 |
| CTAGTTCTGCTTTGCCTTCAGTGCTAG | 0.9 |
| TTAGGTTTCGGTATCGGTCAGTGCTAG | 8.3 |
| GACGGACTGCTTGTCCTGACGTGCTAG | -0.395 |
| GACGATTTCAGTGCCGAGACGTGCTAG | 0.793 |
| TTAGATACCGGGTATCGATTAGTGCTA | 0.444 |
| TTAGGACTGGTTTTCCTTTAGTGCTAG | 2.36 |
| TTTCATTTATTTACTCTCTACGTGCTA | 3.4 |
| GGTCTTCTGGGCTGTTTGATCGTGCTA | -0.0247 |
| TTAGAACTGGGGTTTCAATTAGTGCTA | -0.288 |
| AGACACCCCTTTGGTGCCACGTGCTAG | 0.184 |
